Measured values of several laboratories.
Each numbered part is a random draw from the data of one study; scales do not carry over between parts. Substitutions count along the parent as printed.

Series 1
Target: CCND3, cyclin fold, Cln2 fusion (human)
Technique: yeast growth competition, sequencing
Medium: yeast
Notes: weak parent motif
Relative to: not given
Direction: higher = stronger binding
Parent: RB1 docking peptide (human); PKPLKKLRFDIEG; partner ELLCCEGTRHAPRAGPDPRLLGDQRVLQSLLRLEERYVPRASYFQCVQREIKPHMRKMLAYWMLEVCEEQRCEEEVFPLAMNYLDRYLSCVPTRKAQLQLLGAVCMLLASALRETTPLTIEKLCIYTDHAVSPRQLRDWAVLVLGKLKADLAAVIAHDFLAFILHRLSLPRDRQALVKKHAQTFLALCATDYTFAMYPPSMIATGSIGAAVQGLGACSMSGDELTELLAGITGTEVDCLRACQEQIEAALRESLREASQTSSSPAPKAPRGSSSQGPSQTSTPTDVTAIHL
For `PKPLKKLRFDIEM [G13M]`, “normalised enrichment score” read 0.133.
Under “normalised enrichment score”, `VKPLKKLRFDIEG [P1V]` is recorded as 0.147.
Under “normalised enrichment score”, `PKPPKKLRFDIEG [L4P]` is recorded as 0.0863.
For `PKPLKKLRFDIEN [G13N]`, “normalised enrichment score” read 0.0628.
`PKPLHKLRFDIEG [K5H]`: “normalised enrichment score” 0.129.
`PKVLKKLRFDIEG [P3V]`: “normalised enrichment score” -0.000349.
`PKPLKKLRFAIEG [D10A]`: “normalised enrichment score” 0.168.
`PKPQKKLRFDIEG [L4Q]`: “normalised enrichment score” 0.0816.
`PKPLKKLRFIIEG [D10I]` — result for “normalised enrichment score”: -0.0665.
Under “normalised enrichment score”, `PKPLKKLRFDYEG [I11Y]` is recorded as 0.0717.
Under “normalised enrichment score”, `PKPLFKLRFDIEG [K5F]` is recorded as 0.0778.
Under “normalised enrichment score”, `PKPLKKLRFDIAG [E12A]` is recorded as 0.0182.
`PKPLKKCRFDIEG [L7C]` — result for “normalised enrichment score”: 0.168.

Series 2
Target: Prothrombin, mature alpha-thrombin (F2, Homo sapiens, UniProt P00734)
Technique: aptamer microarray, sandwich
Form: DNA with 2'F-ANA
Medium: in vitro
Concentration: 200 nM
Notes: whole 15-mer aptamer, many near background
Together with: Cy3 exosite-II aptamer, 400 nM
Direction: higher = stronger binding
Sequence: GGTTGGTGTGGTTGG
Under “mean fluorescence intensity”, `2'F-ANA at 2 3 4 5 6 7 8 11 12 13 15` is recorded as 102 a.u.
`2'F-ANA at 6 12 14 15`: “mean fluorescence intensity” 227 a.u.
For `2'F-ANA at 1 3 4 11 15`, “mean fluorescence intensity” read 182 a.u.
`2'F-ANA at 1 2 4 6 8 10 14 15`: “mean fluorescence intensity” 47.1 a.u.
`2'F-ANA at 1 2 4 5 8 9 13 14`: “mean fluorescence intensity” 59.3 a.u.
`2'F-ANA at 2 5 6 7 10 14 15` — result for “mean fluorescence intensity”: 49.5 a.u.
For `2'F-ANA at 1 3 4 5 7 8 9 10 11 14`, “mean fluorescence intensity” read 50.5 a.u.
`2'F-ANA at 2 3 4 6 7 10 11 12 13 15`: “mean fluorescence intensity” 244 a.u.
`2'F-ANA at 3 4 5 6 7 10 11 12 13 14 15` — result for “mean fluorescence intensity”: 51.1 a.u.
`2'F-ANA at 1 4 5 7 11 12 15`: “mean fluorescence intensity” 82.6 a.u.
For `2'F-ANA at 2 4 5 10 11 13`, “mean fluorescence intensity” read 46.5 a.u.
For `2'F-ANA at 1 2 3 4 7 11 13`, “mean fluorescence intensity” read 131 a.u.
`2'F-ANA at 3 7 10 11 13 15`: “mean fluorescence intensity” 498 a.u.
`2'F-ANA at 1 3 5 7 9 11 13 15` — result for “mean fluorescence intensity”: 53.3 a.u.
`2'F-ANA at 2 6 7 11 12 13`: “mean fluorescence intensity” 449 a.u.
`2'F-ANA at 4 6 7 10 11 12 14`: “mean fluorescence intensity” 59.4 a.u.

Series 3
Target: Ras GTPase-activating protein-binding protein 1, full length (G3BP1, Homo sapiens, UniProt Q13283)
Chain of UniProt Q13283 (whole entry, looked up): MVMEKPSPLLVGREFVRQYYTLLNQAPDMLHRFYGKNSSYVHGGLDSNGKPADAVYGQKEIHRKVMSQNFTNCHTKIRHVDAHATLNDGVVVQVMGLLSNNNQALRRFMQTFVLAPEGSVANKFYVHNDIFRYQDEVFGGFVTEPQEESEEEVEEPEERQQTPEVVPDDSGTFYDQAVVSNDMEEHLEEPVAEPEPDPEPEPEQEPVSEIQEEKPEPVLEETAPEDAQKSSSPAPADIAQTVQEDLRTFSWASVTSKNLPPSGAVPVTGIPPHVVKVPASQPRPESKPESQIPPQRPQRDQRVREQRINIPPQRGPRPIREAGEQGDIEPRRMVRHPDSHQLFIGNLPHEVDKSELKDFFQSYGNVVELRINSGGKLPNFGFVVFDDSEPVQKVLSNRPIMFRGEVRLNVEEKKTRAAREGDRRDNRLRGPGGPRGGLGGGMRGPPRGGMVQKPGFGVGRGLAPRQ
Technique: RNA Bind-n-Seq
Form: RNA
Medium: in vitro
Concentration: 200 nM
Notes: whole 134-nt RNA, ends assumed
Together with: 150 mM KCl
Relative to: input library
Direction: higher = stronger binding
All sequences stand within: GGGAGUUCUACAGUCCGACGAUC … UGGAAUUCUCGGGUGUCAAGG
`AGUCCUGUGCUACACAUCGUAUGUACCGAAUCGGGAAAAGGGGAAAAGGGGAAAAGGGAAAGUAUUAUGUUACGCCGUUCGGAUCUGCAC` gave a log2 enrichment of -0.0445.
For `CAAGUCCUGUGCUACACAUCGUAUGUACCGAAUCGGUUUUUGGAGGUUUUUUUGGAAAGUAUUAUGUUACGCCGUUCGGAUCUGCACUUC`, the log2 enrichment was -0.714.
`GCAGGAAGUAAAAACAAAUGGACAUGCUUCGGAUAGUGGCAGGGGUGGGGGUUGCUAAGGAAAGGGUGGGAUGGGAGUGGGUAAAGAGUU` has a log2 enrichment of 1.18.
The log2 enrichment of `CAAGUCCUGUGCUACACAUCGUAUGUACCGAAUCGGGGAAAGGGGAAAGGAAAGGGAAAGUAUUAUGUUACGCCGUUCGGAUCUGCACUU` is reported as -0.238.
With `AGUCCUGUGCUACACAUCGUAUGUACCGAAUCGGGUUUUGGGGUUUUGGGUUUUGGGAAAGUAUUAUGUUACGCCGUUCGGAUCUGCACU` the log2 enrichment was -0.117.
`GUCCUGUGCUACACAUCGUAUGUACCGAAUCGGCCCCCCGGGCCCCCCGGCCCCCCGGGAAAGUAUUAUGUUACGCCGUUCGGAUCUGCA` gave a log2 enrichment of -0.517.
For `CACAGACAACACGAACCCACACAGACACAGAGGGAAGGGGUUGGGAUGGGGACAGGGUGCACAGCAGGGCGGGGUAGGACCCCAGCCCCU`, the log2 enrichment was 2.16.
`CCUGUGCUACACAUCGUAUGUACCGAAUCGGGGAAAAAAAGGGGAAAAAAAGGGGUGGGGAAAGUAUUAUGUUACGCCGUUCGGAUCUGC` gave a log2 enrichment of 0.272.
`UCCUGUGCUACACAUCGUAUGUACCGAAUCGGGGUUUUUUUGGGGAAAAAGGGGAGGGGAAAGUAUUAUGUUACGCCGUUCGGAUCUGCA` gave a log2 enrichment of 0.746.

Single results of other studies
With `PhoQ, residues 284 288 289 292 302 303 TAVSDG` the fold induction was 8.03 (PhoP, residues 12 14 15 18 19 VQALL (Escherichia coli, UniProt P23836); Sort-seq, item: YFP reporter; E. coli; PhoQ-PhoP variant library, together with: 10 µM Mg2+; relative to: high Mg2+ state, higher = stronger signaling).

Repeated from above (series 2):
Under “mean fluorescence intensity”, `2'F-ANA at 2 3 4 5 6 7 8 11 12 13 15` is recorded as 102 a.u.
`2'F-ANA at 6 12 14 15`: “mean fluorescence intensity” 227 a.u.
For `2'F-ANA at 1 3 4 11 15`, “mean fluorescence intensity” read 182 a.u.
`2'F-ANA at 1 2 4 6 8 10 14 15`: “mean fluorescence intensity” 47.1 a.u.
`2'F-ANA at 1 2 4 5 8 9 13 14`: “mean fluorescence intensity” 59.3 a.u.
`2'F-ANA at 2 5 6 7 10 14 15` — result for “mean fluorescence intensity”: 49.5 a.u.
